Assay results from different studies.
Protocols differ between the studies behind these lines. ± gives the spread as reported.

SMILES | cell line | test | setting | IC50
CCN(CC)CCOc1ccc(-c2nc3ccc(F)cc3[nH]2)cc1F | Z-138 | cell growth or viability, MTS | 72 h | 11.5 µM
Cc1cc(C(c2ccccc2)c2ccccc2)c(-n2ccn(-c3c(C(c4ccccc4)c4ccccc4)cc(C)cc3C(c3ccccc3)c3ccccc3)[c]2=[Au][Se]c2ccccc2)c(C(c2ccccc2)c2ccccc2)c1 | Vero E6 | cytotoxicity, crystal violet staining | 96 h | > 100 µM
Cn1c(=O)c(/C=C/c2ccccc2Br)nc2ccccc21 | NCI-H460 | cell growth or viability, MTT | 72 h | > 50 µM
CN(C)CC[C@H](CSc1ccccc1)Nc1ccc(S(=O)(=O)Nc2ccc(N3CCNCC3)cc2)cc1[N+](=O)[O-] | NCI-H1417 | cell growth or viability | 96 h | > 10 µM
O=c1c(/C=C/c2ccccc2)nc2ccccc2n1Cc1ccccc1 | B16-F10 | cell growth or viability, MTT | 72 h | 14.2 µM
CC(=O)O[C@H]1C(=O)[C@@]2(C)[C@H]([C@H](OC(=O)c3ccccc3)[C@]3(O)C[C@H](OC(=O)[C@H](O)[C@@H](NC(=O)c4ccccc4)c4ccccc4)C(C)=C1C3(C)C)[C@]1(OC(C)=O)CO[C@@H]1C[C@@H]2O | iPSC-derived sensory neurons | neurite length, high-content imaging | 48 h | 0.005 µM
Cc1cc(O)cc2c1OC(C)(CCCC(C)CCCC(C)CCCC(C)C(=O)O)CC2 (stereo not drawn) | differentiated HL-60 | LTB4 formation | 10 min pre-incubation, together with: thapsigargin | 11 µM
CN(C)C/C=C/C(=O)Nc1cc2c(Nc3ccc(F)c(Cl)c3)ncnc2cc1O[C@H]1CCOC1 | A-431 | cell viability, CellTiter-Glo | 72 h | < 0.1 µM
C=CC(C)(O)Cc1cc(CC(=O)c2ccc(O)cc2O)c(O)cc1O (stereo not drawn) | Hepa-1c1c7 | cell growth or viability | – | > 100 µM
O=c1ncccn1[C@@H]1O[C@H](CO)[C@@H](O)[C@H]1O | HuCCT-1 | cell growth or viability, MTT | 72 h | 149 µg/mL
O=C1CNC(=O)c2coc(n2)-c2coc(n2)-c2cccc(c2)-c2cccc(c2)-c2nc(co2)-c2nc(co2)CN1 | RPMI 8402 | cytotoxicity, MTT | 4 days, 10% fetal bovine serum | ≤ 3.5 µM
CCOC(=O)C(=NNc1ccc(S(=O)(=O)Nc2ncccn2)cc1)C(=O)OCC | A-431 | cell growth or viability, MTT | 48 h | 6.38 µM
OC[C@H]1O[C@@H](Oc2cc3c(O)cc(O)cc3[o+]c2-c2cc(O)c(O)c(O)c2)[C@H](O)[C@@H](O)[C@@H]1O | Hepa-1c1c7 | cell growth or viability | – | > 100 µM
O[C@H]1[C@H]2c3cc4c(cc3CN3CCC(=C[C@@H]1Cl)[C@H]23)OCO4 | SK-MEL-28 | cell growth or viability, MTT | 72 h | 14.8 µM
Cn1c(=O)c(/C=C/c2ccccn2)nc2ccccc21 | B16-F10 | cell growth or viability, MTT | 72 h | 6.64 µM
NC(=S)N/N=C\c1ccc(OCc2cn(CC(=O)Nc3nc4ccccc4s3)nn2)cc1 | T47D | cell growth or viability, MTT | 48 h | 54 µM
O=C(/C=C/Cc1cccc2ccccc12)NO | urothelial cancer cell lines | cell viability, CellTiter-Glo | 72 h | 9 to 21 µM
Fc1cc(-c2nc3ccccc3[nH]2)ccc1OCc1cn(CCN2CCOCC2)nn1 | Z-138 | cell growth or viability, MTS | 72 h | 45.7 µM
CN(C)C(=O)CCSC(SCCC(=O)O)c1cccc(/C=C/c2ccc3ccc(Cl)cc3n2)c1 (stereo not drawn) | HepG2.A64, entecavir-resistant | cell growth | 96 h | 39.5 ± 0.05 µM
CC(=O)C1=CC[C@H]2[C@]3(C)CC[C@H]4C(C)(C)CCC[C@]4(CO)[C@H]3C[C@H](O)[C@]2(C)[C@H]1C=O | T47D | luciferase reporter gene | 16 h, hypoxia 1% O2, together with: pGL3-Control construct | 2.6 µM
C=C1C(=O)O[C@H]2[C@H]1CCC(C)=C1CC[C@@](C)(O)[C@@H]12 | NCI/ADR-RES | cell growth, inhibitor, Alamar blue | – | 22 ± 5.3 µM
CN1CCN(c2nc3ccccc3nc2/C=C/c2ccccc2F)CC1 | NCI-H460 | cell growth or viability, MTT | 72 h | 11.6 µM
Fc1ccc2nc(-c3ccc(OCCN4CCOCC4)cc3)[nH]c2c1 | Z-138 | cell growth or viability, MTS | 72 h | ≥ 65.7 µM
O=c1cc(-c2ccc(O)cc2)oc2cc(O)cc(O)c12 | Jurkat | cell growth or viability, ATP luminescence | 24 h | 143 µM
O=c1c(/C=C/c2ccccn2)nc2ccccc2n1Cc1ccccc1 | B16-F10 | cell growth or viability, MTT | 72 h | 32.9 µM
CC(=O)O[C@H]1C(=O)[C@@]2(C)[C@H]([C@H](OC(=O)c3ccccc3)[C@]3(O)C[C@H](OC(=O)[C@H](O)[C@@H](NC(=O)c4ccccc4)c4ccccc4)C(C)=C1C3(C)C)[C@]1(OC(C)=O)CO[C@@H]1C[C@@H]2O | NCI-H2009 | cell viability | 10 min exposure, 120 h recovery | 0.015 µM

SMILES | cell line | test | setting | IC50
CC(=O)OC1OC(OC(C)=O)[C@@H]2CCC=C[C@H]12 (stereo partly drawn) | human T lymphocytes | interleukin-2 release, inhibitor, ELISA | pre-treated 2 h, together with: concanavalin A 50 µg/mL 48 h | > 10 µM
CC1COc2c(N3CCN(C)CC3)c(F)cc3c(=O)c(C(=O)[O-])cn1c23.Cc1ccc(C(C)C)cc1.[Cl-].[Ru+2] (stereo not drawn) | CH1 | cell growth or viability, MTT | 96 h | 18 µM
CC(C)=CCC/C(C)=C/COc1ccc2ccc(=O)oc2c1 | COLO 320 multidrug-resistant | cell growth, MTT | 72 h | 25.3 ± 0.42 µM
CC(C)C[C@H](NC(=O)[C@@H](NC(=O)[C@@H]1CCCN1C(=O)[C@@H](NC(=O)[C@H](CO)NC(=O)[C@@H](NC(=O)[C@H](CCC(N)=O)NC(=O)[C@@H]1CCCN1C(=O)[C@@H](NC(=O)[C@H](CCCCN)NC(=O)[C@H](CCCCN)NC(=O)[C@@H](NC(=O)[C@H](Cc1ccc(O)cc1)NC(=O)[C@H](CCCNC(=N)N)NC(=O)[C@@H](NC(=O)[C@@H](N)CC(C)C)C(C)C)[C@@H](C)O)C(C)C)C(C)C)[C@@H](C)O)[C@@H](C)O)C(=O)O | SUP-T1 | ERK phosphorylation, inhibitor, phosphoflow cytometry | together with: CXCL12 100 ng/mL, 2 min | > 100 µM
CC(C)OC(=O)C(n1cccn1)n1cccn1 | LoVo OXP, oxaliplatin-resistant | MTT | 72 h | > 50 µM
N.N.O=C([O-])C1(C(=O)[O-])CCC1.[Pt+2] | NCI-H838 | cell growth or viability, MTT | 4 h | 224 µM
CS(=O)(=O)c1ccc2nc(NC(=O)Cn3cc(COc4ccc(/C=N/NC(=O)c5ccccc5)cc4)nn3)sc2c1 | T47D | cell growth or viability, MTT | 48 h | 19 µM
CN(C)CC[C@H](CSc1ccccc1)Nc1ccc(S(=O)(=O)NC(=O)c2ccc(N3CCN(Cc4ccccc4-c4ccc(Cl)cc4)CC3)cc2)cc1[N+](=O)[O-] | mouse p185+ Arf-/- B-ALL cells | cell viability, CellTiter-Glo | 24 h | 5.1 µM
CC(=O)O[C@H]1C(=O)[C@@]2(C)[C@H]([C@H](OC(=O)c3ccccc3)[C@]3(O)C[C@H](OC(=O)[C@H](O)[C@@H](NC(=O)c4ccccc4)c4ccccc4)C(C)=C1C3(C)C)[C@]1(OC(C)=O)CO[C@@H]1C[C@@H]2O | HCT-8/T (compound-resistant) | cell viability, CCK-8 | 72 h | > 20 µM
CC(C)Oc1ccc(C(=O)Cn2ccnc2)cc1-n1c(CN2CCN(C(=O)COc3ccc(Cl)cc3)CC2)nc2ccccc2c1=O | U2932 | cell viability, CellTiter-Glo | 24 h | > 10 µM
CCn1c(-c2cccnc2[C@H](C)OC)c2c3cc(ccc31)N1CCO[C@@H](C[C@H](NC(=O)[C@H](C(C)C)N(C)C(=O)C3(F)CCN(C(=O)C#CC(C)(C)N(C)C)CC3)C(=O)N3CCC[C@H](N3)C(=O)OCC(C)(C)C2)C1 | KRAS G12C mutant cell lines | cell growth, 3D CellTiter-Glo | 120 h | 0.00011 µM
Fc1ccc2nc(-c3ccc(OCc4cn(CCN5CCOCC5)nn4)cc3)[nH]c2c1 | Z-138 | cell growth or viability, MTS | 72 h | 54.4 µM
COc1cccc2c1C(=O)c1c(O)c3c(c(O)c1C2=O)C[C@@](O)(C(=O)CO)C[C@@H]3O[C@H]1C[C@H](N)[C@@H](O)[C@H](C)O1 | HCT-15/ADM2 | cell growth, XTT | 72 h | 6.6 µg/mL
O=C(Cn1cc(COc2ccc(/C=N/NC(=O)c3ccncc3)cc2)nn1)Nc1nc2ccccc2s1 | T47D | cell growth or viability, MTT | 48 h | 30 µM
O=c1c(/C=C/c2ccccc2Cl)nc2ccccc2n1Cc1ccccc1 | B16-F10 | cell growth or viability, MTT | 72 h | 3.93 µM
C=CC(=O)N1CCC([C@@H]2CCNc3c(C(N)=O)c(-c4ccc(Oc5ccccc5)cc4)nn32)CC1 | OCI-Ly10 | cell growth or viability, CCK-8 | 72 h | 0.846 µM
N=C(N)NCCC[C@H](NC(=O)[C@H](CCCNC(=N)N)NC(=O)[C@H](Cc1c[nH]c2ccccc12)NC(=O)[C@H](CCC(N)=O)NC(=O)[C@H](Cc1c[nH]c2ccccc12)NC(=O)[C@H](CCCNC(=N)N)NC(=O)[C@H](Cc1c[nH]c2ccccc12)NC(=O)[C@H](CCC(N)=O)NC(=O)[C@H](Cc1c[nH]c2ccccc12)NC(=O)[C@@H](N)CCCNC(=N)N)C(N)=O | MCF-12 | cell viability, MTT | 2 h | 76 µM
COc1cc(F)c([C@@H]2CNC(=O)[C@H]2NC(=O)Nc2ccccc2)c(F)c1 | differentiated HL-60 | chemotaxis, antagonist | together with: serum amyloid A 0.8 µM | 0.021 µM
CC(=O)OC[C@H]1O[C@@H]([S-])[C@H](OC(C)=O)[C@@H](OC(C)=O)[C@@H]1OC(C)=O.CCP(CC)CC.[Au+] | Vero E6 | cytotoxicity, crystal violet staining | 96 h | 2.6 ± 0.1 µM
Cn1c(=O)c(/C=C/c2ccccc2Cl)nc2ccccc21 | B16-F10 | cell growth or viability, MTT | 72 h | 9.95 µM
CCC[C@H](NC(=O)c1ccc(CCCc2cc3c(=O)[nH]c(N)nc3[nH]2)s1)C(=O)O | CHO RT16 (human FRα) | cell growth | together with: folic acid 200 nM | > 1 µM
[NH2][Pt]12([NH2])([O]C(=O)CC(=O)[O]1)[O]C(=O)CC(=O)[O]2 | CH1 | cell viability, MTT | 96 h | 32 ± 9 µM
C#Cc1cccc(Nc2ncnc3cc(OCCOC)c(OCCOC)cc23)c1 | A-431 | cell growth or viability, MTT | 48 h | 11.1 µM
O=c1[nH]c2ccccc2nc1/C=C/c1ccc(F)cc1 | B16-F10 | cell growth or viability, MTT | 72 h | 4.96 µM
COc1c(-c2ccc(O)c(O)c2)oc2cc(O)cc(OC)c2c1=O | Hepa-1c1c7 | cell growth or viability | – | > 100 µM

For quick reference, copied from above:
SMILES | cell line | test | setting | IC50
CCC[C@H](NC(=O)c1ccc(CCCc2cc3c(=O)[nH]c(N)nc3[nH]2)s1)C(=O)O | CHO RT16 (human FRα) | cell growth | together with: folic acid 200 nM | > 1 µM
COc1cc(F)c([C@@H]2CNC(=O)[C@H]2NC(=O)Nc2ccccc2)c(F)c1 | differentiated HL-60 | chemotaxis, antagonist | together with: serum amyloid A 0.8 µM | 0.021 µM
CN1CCN(c2nc3ccccc3nc2/C=C/c2ccccc2F)CC1 | NCI-H460 | cell growth or viability, MTT | 72 h | 11.6 µM
N.N.O=C([O-])C1(C(=O)[O-])CCC1.[Pt+2] | NCI-H838 | cell growth or viability, MTT | 4 h | 224 µM
